Experimental data collected from several papers.
Parts stem from different laboratories: compare values within a part only. Changes are numbered by the printed parent chain.

Sample 1 — target: CCNB2, cyclin fold, Cln2 fusion (human); method: yeast growth competition, sequencing; matrix: yeast; setting: weak parent motif; relative to: not given; reading: higher = stronger binding
Starting sequence: CDC6 docking peptide (human); TLKGRRLVFDNQL
Substitution	normalised enrichment score
R5W	0.325
R5E	-0.657
L13D	0.0664
R6G	-0.245
L13F	0.213
V8H	0.0692
R6Y	0.235
T1A	0.613
L7K	0.512
L7M	0.251
N11W	0.424
F9K	0.633
V8P	0.281
T1K	0.577
L13M	0.471
V8I	0.0176
L7G	0.416
L2H	0.0426

Sample 2 — method: protein-binding microarray; molecule type: double-stranded DNA, one strand shown; matrix: in vitro; tested at: 250 nM; setting: 60-bp whole probe; with: salmon DNA 0.4 mg/ml; relative to: random background probes; reading: higher = stronger binding; constant ends, left off below: GCCTAGCAC … GTCTTGATTCGCTTGACGCTGCTG
Target: Interferon regulatory factor 7, full length, phosphomimetic (IRF7, Homo sapiens, UniProt Q92985, residues 1-503, S101K/S471D/S472D/S475D/S476D/S477D/S483D/S484D/S487D)
UniProt Q92985, sequence (whole entry, unmodified, looked up): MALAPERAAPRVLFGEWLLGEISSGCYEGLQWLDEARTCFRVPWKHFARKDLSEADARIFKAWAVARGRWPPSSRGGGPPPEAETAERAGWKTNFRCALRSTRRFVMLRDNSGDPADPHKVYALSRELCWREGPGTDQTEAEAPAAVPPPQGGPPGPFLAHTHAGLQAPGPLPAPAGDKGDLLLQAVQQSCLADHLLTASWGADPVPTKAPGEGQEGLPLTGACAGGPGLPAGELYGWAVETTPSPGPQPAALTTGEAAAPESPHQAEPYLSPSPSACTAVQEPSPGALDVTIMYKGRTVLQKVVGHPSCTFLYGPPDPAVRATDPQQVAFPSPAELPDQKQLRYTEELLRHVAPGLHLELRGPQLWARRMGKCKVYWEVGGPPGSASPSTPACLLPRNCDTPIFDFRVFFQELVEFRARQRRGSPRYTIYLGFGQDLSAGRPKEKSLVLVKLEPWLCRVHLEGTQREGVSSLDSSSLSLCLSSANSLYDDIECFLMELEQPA
Sequence	log fluorescence [z-score]
TTAGGACTTGACACTGGGTTAGTGCTA	-0.442
GACGTTATCCTTCTCCTGACGTGCTAG	0.672
CTAGGTCTCCTTCTCCTTTAGTGCTAG	0.403
GTAGGTCTCGGTATCGGTTAGTGCTAG	2.98
GACGCTATCGGTATCGGGACGTGCTAG	0.442
TTCGGTTTCGACTTTCGGTTAGTGCTA	11.7
GTGTTATTAAAACTTCATGAAGTGCTA	1.28
GACGAACTTAGTCTCGAGACGTGCTAG	1.01
TTAGAACTGAGAGTGGATTAGTGCTAG	-0.406
TTACGTATCGGGACTGGGTTAGTGCTA	0.0413
GCCGGTTTCGGGTATCGGGACGTGCTA	8.19
GACGGTTTGGACACTGGGGACGTGCTA	-0.451
TTAGGTCTCCTTTTCCTTTGGTGCTAG	1.82
TCACATGTGCTGTCTCAGACTGTGCTA	-0.706
ATGGAAATGCACCCCACGCTGTGCTAG	-0.686
GACGGTTTCGGTCCCGGGACGTGCTAG	6
TGGCAGCATTCTTGGAAATCGTGCTAG	-0.752
TATTGTGTCAACTTTCTCTGCGTGCTA	0.127
ATCGTAAGCAAAAATGATTGGTGCTAG	-0.175

Sample 3 — target: TEF, bZIP domain (human); method: DHFR protein complementation; matrix: yeast; relative to: wild-type JUN-FOS pair; reading: higher = stronger binding
Setting: single substitutions, most at no-binding floor
Starting sequence: JUN, bZIP domain (human); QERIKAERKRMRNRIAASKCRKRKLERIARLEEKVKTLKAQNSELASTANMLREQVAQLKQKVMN; partner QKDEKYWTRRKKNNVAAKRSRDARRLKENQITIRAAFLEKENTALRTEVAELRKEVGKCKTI
Substitution	binding fitness
A57K	-1.39 natural log
I28G	-1.43 natural log
I28V	-1.51 natural log
S43N	-1.45 natural log
N42M	-1.42 natural log
I28Q	-1.48 natural log
A40Q	-1.23 natural log
S43K	-1.24 natural log
A46H	-1.62 natural log
A40V	-1.52 natural log
L38I	-1.49 natural log
T48H	-1.41 natural log
R53T	-1.51 natural log
E44W	-1.53 natural log
A40W	-1.47 natural log
L45T	-1.52 natural log
L38T	-1.54 natural log
M51R	-1.28 natural log
A46Q	-1.52 natural log
T37E	-1.45 natural log
V56Q	-1.56 natural log
S43E	-1.37 natural log
T48V	-1.45 natural log
S43M	-1.47 natural log
Q41M	-1.38 natural log

Sample 4 — method: DHFR PCA, deep sequencing; matrix: yeast; with: (+)-ABA 2500 µM; relative to: wild-type fitted maximum; reading: higher = stronger binding
Target: ABI1, truncated, D143A, DHFR fusion (Arabidopsis thaliana)
Setting: methotrexate growth selection, single substitutions
Starting sequence: PYL1, truncated, DHFR fusion (Arabidopsis thaliana); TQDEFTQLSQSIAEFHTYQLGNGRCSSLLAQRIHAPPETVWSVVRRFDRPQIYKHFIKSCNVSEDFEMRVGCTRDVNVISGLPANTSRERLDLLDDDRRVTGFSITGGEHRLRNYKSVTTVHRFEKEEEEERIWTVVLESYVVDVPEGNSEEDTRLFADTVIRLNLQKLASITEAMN; partner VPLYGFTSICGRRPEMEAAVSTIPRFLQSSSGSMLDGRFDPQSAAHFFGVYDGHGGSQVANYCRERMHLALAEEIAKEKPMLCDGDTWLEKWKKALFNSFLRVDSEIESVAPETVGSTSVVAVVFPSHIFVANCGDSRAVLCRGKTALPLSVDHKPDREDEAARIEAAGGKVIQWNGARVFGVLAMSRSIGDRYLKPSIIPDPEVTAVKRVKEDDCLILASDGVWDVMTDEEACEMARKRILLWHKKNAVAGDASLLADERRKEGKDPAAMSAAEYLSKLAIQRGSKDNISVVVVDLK
Substitution	relative binding score [%]
E4Y	102
R123K	111
E174D	87.7
I33G	-15.2
L156K	91
Q10C	106
E127C	95.4
D48C	79.7
P36M	96.3
D3Y	92.3
F15P	41.2
R98T	99.9
V44W	-29.3
C72E	91.4
R46P	71.3
S104R	91.6
A13I	91.9
F47M	19.8
M68I	97.6
E38S	94.9
V40F	-9
D97R	92
D95G	67.9
S63A	97.5
R88N	100

A few entries again (sample 2):
Sequence	log fluorescence [z-score]
ATGGAAATGCACCCCACGCTGTGCTAG	-0.686
TTACGTATCGGGACTGGGTTAGTGCTA	0.0413
GACGGTTTGGACACTGGGGACGTGCTA	-0.451
TTAGGACTTGACACTGGGTTAGTGCTA	-0.442
TTCGGTTTCGACTTTCGGTTAGTGCTA	11.7
TGGCAGCATTCTTGGAAATCGTGCTAG	-0.752
TTAGGTCTCCTTTTCCTTTGGTGCTAG	1.82
GACGAACTTAGTCTCGAGACGTGCTAG	1.01
